Experimental data from different studies.
Lines come from different studies, so protocols differ. Values joined by “and” are separate records of one study, mostly repeats; a detail may differ. ± gives the spread as reported.
Grin1 V689I with GluN2C: Glutamate receptor ionotropic, NMDA 1, with GluN2C (Grin1, Rattus norvegicus, UniProt P35439, V689I)
KRAS G12D GDP-bound: GTPase KRas, GDP-bound (KRAS, Homo sapiens, UniProt P01116, G12D)
ALB: Albumin (ALB, Homo sapiens, UniProt P02768)
uncharacterized protein: uncharacterized protein (Spodoptera exigua, UniProt F1CEY0)
Sequence of UniProt Q695T7 (whole entry, looked up): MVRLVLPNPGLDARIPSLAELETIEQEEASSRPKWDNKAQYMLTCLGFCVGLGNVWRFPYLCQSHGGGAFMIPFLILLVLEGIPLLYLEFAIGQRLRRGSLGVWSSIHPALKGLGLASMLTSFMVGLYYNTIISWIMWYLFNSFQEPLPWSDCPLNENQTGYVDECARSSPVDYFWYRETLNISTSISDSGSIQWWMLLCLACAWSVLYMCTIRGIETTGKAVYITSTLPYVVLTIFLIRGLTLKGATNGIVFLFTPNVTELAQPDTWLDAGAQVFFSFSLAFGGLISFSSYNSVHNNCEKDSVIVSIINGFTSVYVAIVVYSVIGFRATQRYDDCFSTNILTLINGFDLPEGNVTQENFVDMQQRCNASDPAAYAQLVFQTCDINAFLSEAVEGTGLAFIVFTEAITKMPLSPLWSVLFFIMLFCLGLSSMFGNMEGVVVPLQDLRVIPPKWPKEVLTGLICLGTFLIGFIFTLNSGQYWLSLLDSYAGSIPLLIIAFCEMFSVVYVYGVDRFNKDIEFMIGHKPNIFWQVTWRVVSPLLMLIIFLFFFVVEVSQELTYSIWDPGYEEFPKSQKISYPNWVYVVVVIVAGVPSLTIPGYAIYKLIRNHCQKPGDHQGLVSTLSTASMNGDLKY
Sequence of UniProt Q64663 (whole entry, unmodified, looked up): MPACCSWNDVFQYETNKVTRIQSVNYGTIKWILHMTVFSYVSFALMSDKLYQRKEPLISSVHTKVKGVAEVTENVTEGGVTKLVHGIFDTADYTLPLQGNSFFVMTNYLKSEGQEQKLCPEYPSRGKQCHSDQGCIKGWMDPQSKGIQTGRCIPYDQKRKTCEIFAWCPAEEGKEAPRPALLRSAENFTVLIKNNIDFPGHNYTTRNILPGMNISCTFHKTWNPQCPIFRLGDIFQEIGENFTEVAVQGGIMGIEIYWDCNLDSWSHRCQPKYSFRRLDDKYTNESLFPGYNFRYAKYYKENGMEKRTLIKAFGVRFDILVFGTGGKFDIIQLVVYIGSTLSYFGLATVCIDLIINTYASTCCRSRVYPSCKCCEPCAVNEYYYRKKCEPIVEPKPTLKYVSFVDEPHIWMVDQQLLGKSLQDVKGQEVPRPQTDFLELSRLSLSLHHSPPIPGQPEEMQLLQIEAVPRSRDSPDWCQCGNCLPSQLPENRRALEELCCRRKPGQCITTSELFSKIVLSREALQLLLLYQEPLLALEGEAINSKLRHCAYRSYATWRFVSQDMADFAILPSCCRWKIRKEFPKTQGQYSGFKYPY
Sequence of UniProt Q16774 (whole entry, looked up): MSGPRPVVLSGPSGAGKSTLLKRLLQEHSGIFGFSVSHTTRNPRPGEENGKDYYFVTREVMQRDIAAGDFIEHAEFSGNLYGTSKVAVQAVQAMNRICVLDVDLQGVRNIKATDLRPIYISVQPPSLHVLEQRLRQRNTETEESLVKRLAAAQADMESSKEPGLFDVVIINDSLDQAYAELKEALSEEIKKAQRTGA
Sequence of UniProt P51575 (whole entry, unmodified, looked up): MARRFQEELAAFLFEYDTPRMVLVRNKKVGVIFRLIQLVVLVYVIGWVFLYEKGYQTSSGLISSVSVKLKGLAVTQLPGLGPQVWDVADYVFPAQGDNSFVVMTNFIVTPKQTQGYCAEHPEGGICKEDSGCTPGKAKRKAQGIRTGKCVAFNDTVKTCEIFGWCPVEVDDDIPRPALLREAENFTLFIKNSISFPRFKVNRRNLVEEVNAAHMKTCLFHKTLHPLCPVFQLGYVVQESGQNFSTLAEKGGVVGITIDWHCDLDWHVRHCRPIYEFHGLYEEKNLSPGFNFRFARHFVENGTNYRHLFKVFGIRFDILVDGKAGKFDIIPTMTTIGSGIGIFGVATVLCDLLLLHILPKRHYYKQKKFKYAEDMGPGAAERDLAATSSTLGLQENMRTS
Sequence of UniProt Q9Y239 (whole entry, looked up): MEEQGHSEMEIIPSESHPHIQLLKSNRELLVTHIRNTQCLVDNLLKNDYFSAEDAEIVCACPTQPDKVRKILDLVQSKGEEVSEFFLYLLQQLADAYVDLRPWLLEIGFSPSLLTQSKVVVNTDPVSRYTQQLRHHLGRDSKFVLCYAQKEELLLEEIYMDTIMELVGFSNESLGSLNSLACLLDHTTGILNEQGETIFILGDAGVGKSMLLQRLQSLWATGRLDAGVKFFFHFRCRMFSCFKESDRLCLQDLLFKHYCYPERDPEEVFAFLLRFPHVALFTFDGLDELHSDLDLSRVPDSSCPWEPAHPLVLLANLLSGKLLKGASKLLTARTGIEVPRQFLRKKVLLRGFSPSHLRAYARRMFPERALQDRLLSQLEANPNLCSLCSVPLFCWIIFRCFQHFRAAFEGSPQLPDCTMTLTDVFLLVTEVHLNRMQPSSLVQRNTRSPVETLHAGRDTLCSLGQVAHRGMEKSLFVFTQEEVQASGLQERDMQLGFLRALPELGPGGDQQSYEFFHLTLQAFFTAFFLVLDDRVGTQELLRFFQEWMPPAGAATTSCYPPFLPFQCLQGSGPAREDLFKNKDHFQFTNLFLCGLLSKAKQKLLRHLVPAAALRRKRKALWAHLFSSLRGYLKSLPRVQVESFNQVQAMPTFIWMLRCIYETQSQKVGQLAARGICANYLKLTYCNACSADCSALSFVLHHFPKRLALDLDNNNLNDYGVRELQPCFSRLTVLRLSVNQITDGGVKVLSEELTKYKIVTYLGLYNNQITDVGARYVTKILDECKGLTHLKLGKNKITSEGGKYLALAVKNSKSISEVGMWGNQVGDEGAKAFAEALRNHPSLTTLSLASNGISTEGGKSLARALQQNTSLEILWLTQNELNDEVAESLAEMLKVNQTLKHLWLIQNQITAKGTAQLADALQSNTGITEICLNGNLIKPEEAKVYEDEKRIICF
Sequence of UniProt P34995 (whole entry, unmodified, looked up): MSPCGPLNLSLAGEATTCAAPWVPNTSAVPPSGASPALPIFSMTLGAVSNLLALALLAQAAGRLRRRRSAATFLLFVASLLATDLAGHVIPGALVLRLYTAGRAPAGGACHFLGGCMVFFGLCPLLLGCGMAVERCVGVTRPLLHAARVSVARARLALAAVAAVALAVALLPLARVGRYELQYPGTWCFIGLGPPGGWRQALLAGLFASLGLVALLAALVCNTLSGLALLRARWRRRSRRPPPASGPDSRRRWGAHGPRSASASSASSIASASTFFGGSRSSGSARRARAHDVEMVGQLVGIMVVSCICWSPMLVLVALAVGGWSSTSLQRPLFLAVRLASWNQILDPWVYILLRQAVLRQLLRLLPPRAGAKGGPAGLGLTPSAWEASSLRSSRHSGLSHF
Sequence of UniProt P18031 (whole entry, looked up): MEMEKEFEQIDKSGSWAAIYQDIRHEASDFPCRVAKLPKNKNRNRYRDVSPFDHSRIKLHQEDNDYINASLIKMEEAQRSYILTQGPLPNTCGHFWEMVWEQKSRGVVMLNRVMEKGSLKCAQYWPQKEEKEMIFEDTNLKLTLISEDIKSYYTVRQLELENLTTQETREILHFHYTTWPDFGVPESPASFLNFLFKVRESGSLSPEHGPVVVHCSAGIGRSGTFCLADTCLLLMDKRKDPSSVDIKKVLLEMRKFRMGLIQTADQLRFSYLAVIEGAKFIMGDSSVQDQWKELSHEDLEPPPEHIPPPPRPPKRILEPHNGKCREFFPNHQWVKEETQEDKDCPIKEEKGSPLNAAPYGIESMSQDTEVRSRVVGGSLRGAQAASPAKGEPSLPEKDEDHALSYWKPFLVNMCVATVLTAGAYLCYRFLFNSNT
Sequence of UniProt Q8NFD2 (whole entry, looked up): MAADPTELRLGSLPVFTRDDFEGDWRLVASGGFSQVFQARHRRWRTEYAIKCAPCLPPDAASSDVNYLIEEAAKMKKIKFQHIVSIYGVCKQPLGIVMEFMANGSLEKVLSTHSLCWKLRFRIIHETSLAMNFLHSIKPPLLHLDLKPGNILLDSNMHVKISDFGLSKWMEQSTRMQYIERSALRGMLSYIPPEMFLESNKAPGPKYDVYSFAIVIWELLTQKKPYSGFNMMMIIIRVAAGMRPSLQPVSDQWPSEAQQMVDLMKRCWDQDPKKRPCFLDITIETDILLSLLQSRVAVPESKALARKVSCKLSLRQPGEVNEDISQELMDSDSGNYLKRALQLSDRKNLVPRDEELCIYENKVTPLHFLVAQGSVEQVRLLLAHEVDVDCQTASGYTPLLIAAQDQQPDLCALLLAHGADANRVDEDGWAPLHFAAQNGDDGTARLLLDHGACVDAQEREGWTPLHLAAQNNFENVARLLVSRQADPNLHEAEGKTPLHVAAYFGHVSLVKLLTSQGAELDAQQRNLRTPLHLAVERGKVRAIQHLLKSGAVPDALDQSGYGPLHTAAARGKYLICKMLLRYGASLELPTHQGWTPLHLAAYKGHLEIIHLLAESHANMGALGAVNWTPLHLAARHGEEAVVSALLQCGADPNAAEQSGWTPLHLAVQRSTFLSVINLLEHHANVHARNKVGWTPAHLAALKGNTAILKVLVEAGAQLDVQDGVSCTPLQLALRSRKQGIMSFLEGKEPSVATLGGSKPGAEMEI

CC[C@@H]1[C@H](F)C(=O)N[C@@H]1COc1nccc2cc(C(N)=O)c(OC)cc12 — inhibition (Ephrin type-A receptor 2 (EPHA2, Homo sapiens, UniProt P29317); ATP probe binding, KiNativ profiling, measured: activation loop probe site; THP-1 cell lysate; 0.2 mM): 2.2%
N[C@H](CNC(=O)c1cc(Br)c(-c2ccccc2F)s1)C(=O)O — log EC50 (Grin1 V689I with GluN2C; receptor activation; rat; added: glutamate 300 µM): -1.88 µM
C=CCO[C@H]1CCN2C(=O)[C@@H](NC(=O)[C@H](CCCNC(=N)N)NC(=O)[C@H](CCCNC(=N)N)NC(C)=O)CSSC[C@@H](C(=O)N[C@@H](CCCNC(=N)N)C(=O)N[C@@H](CCCNC(=N)N)C(N)=O)NC(=O)[C@H](C(C)C)NC(=O)[C@@H]3CCCN3C(=O)[C@H](CC(=O)O)NC(=O)[C@H](Cc3ccc(O)cc3)NC(=O)[C@H](CO)NC(=O)[C@H]([C@@H](C)CC)NC(=O)[C@H](Cc3ccc(-c4ccccc4)cc3)NC(=O)[C@H](CC(C)C)NC(=O)[C@H]12 — lowest bound protein concentration (KRAS G12D GDP-bound; affinity selection mass spectrometry; mixture library 3, added: protein titration up to 2.5 µM; lower is stronger binding): 0.04 µM
NC/C(=C\F)COc1cccc(Cn2c(=S)[nH]c(=O)c3[nH]cnc32)c1 — inhibition (Amine oxidase copper-containing 3 (Canis lupus familiaris, UniProt A0A8I3MYY3); inhibitor; dog adipose tissue; 0.1111 µM): 105%
Nc1ncnc2c1ncn2[C@@H]1O[C@H](COP(=O)(O)OP(=O)(O)OP(=O)(O)O)[C@@H](O)[C@H]1O — normalized current (P2X purinoceptor 7 (P2rx7, Rattus norvegicus, UniProt Q64663, I214A/Q143A/R125A); ion current, agonist, two-electrode voltage clamp; Xenopus oocytes; 300 µM): 0.736 and 0.65 and 0.651
[O-][S+]1CCCCS1 (stereo not shown) — SOD1 dimer fraction (Superoxide dismutase [Cu-Zn] (SOD1, Homo sapiens, UniProt P00441, G94A); LC-MS; brain homogenate; 0.5 µM, 1 h, 37 °C): 0.34%
O=[N+]([O-])c1ccc(OP(=O)(O)O)cc1 — Km (Tyrosine-protein phosphatase non-receptor type 1 (PTPN1, Homo sapiens, UniProt P18031); substrate): 580 µM
CCNC(=O)/C=C/c1cccc(Br)c1 — normalised signal (Sodium-dependent neutral amino acid transporter B(0)AT1 (SLC6A19, Homo sapiens, UniProt Q695T7); inhibitor, FLIPR membrane potential; CHO-BC cells; 100 µM; relative to: uninhibited control): 0.426 and 0.451 and 0.411 and 0.446
CC[C@H](C)[C@@H]1NC(=O)[C@H](Cc2ccc(O)cc2)NC(=O)[C@H](CC(C)C)NC(=O)[C@@H]2CCCN2C(=O)[C@@H](NC(=O)[C@H](CCCNC(=N)N)NC(=O)[C@H](CCCNC(=N)N)NC(C)=O)CSSC[C@@H](C(=O)N[C@@H](CCCNC(=N)N)C(=O)N[C@@H](CCCNC(=N)N)C(N)=O)NC(=O)[C@H](C(C)C)NC(=O)[C@@H]2CCCN2C(=O)[C@H](CC(=O)O)NC(=O)[C@H](Cc2ccc(O)cc2)NC(=O)[C@H](CO)NC1=O — lowest bound protein concentration (KRAS G12D GDP-bound; affinity selection mass spectrometry; mixture library 2, added: protein titration up to 5 µM; lower is stronger binding): 0.08 µM
c1ccc(-c2n[nH]cc2-c2ccnc3ccccc23)nc1 — log2 fold change (Carbon catabolite-derepressing protein kinase (SNF1, Candida albicans, UniProt P52497); kinase binding, competitor, MIB/MS competition, measured: SNF1; Candida albicans cell lysate; 1 µM; relative to: DMSO): 1.12
Nc1ncnc2c1ncn2[C@@H]1O[C@H](COP(=O)(O)CP(=O)(O)OP(=O)(O)O)[C@@H](O)[C@H]1O — calcium influx (P2X purinoceptor 1 (P2RX1, Homo sapiens, UniProt P51575, R139A); calcium influx; 31.6 nM; relative to: ionomycin response): 2.55% and 0% and 6.81%
Cc1nc(CSc2nc(SCc3ccc(C(C)C)cc3)nc(=O)[nH]2)cs1 — linear DNA (DNA topoisomerase 2-alpha (TOP2A, Homo sapiens, UniProt P11388); DNA cleavage; 31.25 µM, replicate 1): 0%
Cc1ccc(C(=O)Nc2ccc3ccccc3c2)o1 — reversal potential (Otop1 (Mus musculus, UniProt Q80VM9); proton current, voltage ramp patch-clamp; 10 µM, K+ bath cation): 57 mV
C=CC(=O)N1CCC(COCC(=O)N2CCN(c3nc(-c4cnc(N)nc4C(F)F)nc(N4CCOC[C@@H]4C)n3)CC2)CC1 — remaining binding (Ankyrin repeat and protein kinase domain-containing protein 1 (ANKK1, Homo sapiens, UniProt Q8NFD2); KINOMEscan; 1 µM): 95%
CCCCC[C@H](O)/C=C/[C@H]1[C@H](O)CC(=O)[C@@H]1C/C=C\CCCC(=O)O — Emax (Prostaglandin E2 receptor EP1 subtype (PTGER1, Homo sapiens, UniProt P34995, G92T); IP1 accumulation, agonist; AD293; 1 h, EP1 G92T mutant): 108 ± 3.25%
C#Cc1c(F)ccc2cc(O)cc(-c3ncc4c(N5CC6CCC(C5)N6)nc(OC[C@@]56CCCN5C[C@H](F)C6)nc4c3F)c12 — dissociation rate constant koff (GTPase KRas, GDP-bound (KRAS, Homo sapiens, UniProt P01116, Q61R); SPR): 0.00053 ± 0.00035 s⁻¹
Nc1nc2c(ncn2[C@@H]2O[C@H](COP(=O)(O)O)[C@@H](O)[C@H]2O)c(=O)[nH]1 — reaction velocity (GUK1 (Homo sapiens, UniProt Q16774); enzyme activity, NADH-coupled; 125 µM, added: KCl 150 mM): 0.0807 µM/s and 0.0809 µM/s and 0.0475 µM/s
O=S(=O)(O)C1CCNCC1 — normalised MST signal (Sodium- and chloride-dependent taurine transporter (SLC6A6, Homo sapiens, UniProt P31641, G62A); binding, microscale thermophoresis; 250 µM, room temperature, added: 50 nM labelled protein; higher = more binding): -0.00255
O=c1cc(CO)occ1[O-].[Cl-].[W+4].c1cc[cH-]c1.c1cc[cH-]c1 — enthalpy change (ALB; binding, van't Hoff fluorescence quenching; concentration not given): -1.45 kcal/mol
CN(C)C(=O)CN1CCN(c2cnc3c(cc(C(=O)NCc4ccc(Cl)cc4)c(=O)n3CC(=O)N3CC(C)(F)C3)n2)C1=O — Hill slope (DNA polymerase catalytic subunit (Human cytomegalovirus, UniProt P08546); enzyme activity, inhibitor): 0.64
CC(=O)N[C@H]1C(O)O[C@H](CO)[C@@H](O)[C@@H]1O[C@H](C)C(=O)N[C@@H](C)C(=O)N[C@H](CCC(=O)O)C(=O)O (stereo partly shown) — SEAP fold change (Nucleotide-binding oligomerization domain-containing protein 1 (NOD1, Homo sapiens, UniProt Q9Y239); reporter gene, agonist; HEK-Blue mNOD1 reporter cells; 200 nM, 18 h; relative to: untreated): 0.967 and 1.03 and 1.07
CC/C(=C(\c1ccc(O)cc1)c1ccc(OCCN(C)C)cc1)c1ccccc1 — half-inactivation voltage (Voltage-gated sodium channel NavMs (Magnetococcus marinus, UniProt A0L5S6); sodium current, inhibitor, voltage dependence of inactivation; concentration not given): -122 ± 8 mV
CCCCCCCCCCCCCCCCCC — relative fluorescence (uncharacterized protein; binding, competitor, fluorescence displacement; 20 µM, pH 7.4, added: 1-NPN 20 µM; relative to: 1-NPN alone): 83.3%
CC(=O)N[C@H](C(=O)N1C[C@H](O)C[C@H]1C(=O)NCc1ccc(-c2scnc2C)cc1)C(C)(C)SCCCCCCNC(=O)C[C@@H]1N=C(c2ccc(Cl)cc2)c2c(sc(C)c2C)-n2c(C)nnc21 — −TΔS (BRD2/VHL, BD2; with VCB (Homo sapiens, UniProt P25440+P40337); ternary complex binding, ITC; 25 °C, added: VHL-ElonginB-ElonginC titrated into compound:PROTAC:Brd2^BD2 complex): -2.5 ± 0.5 kcal/mol
C[S+](CC[C@H](N)C(=O)[O-])C[C@H]1O[C@@H](n2cnc3c(N)ncnc32)[C@H](O)[C@@H]1O (stereo partly shown) — apparent Vmax (Histone-lysine N-methyltransferase 2C (KMT2C, Homo sapiens, UniProt Q8NEZ4); substrate, enzyme-coupled methylation; added: H3 peptide 400 µM): 2.7 ± 0.2 µM/min
OC[C@H]1O[C@@H](Oc2cc3c(O)cc(O)cc3[o+]c2-c2cc(O)c(O)c(O)c2)[C@H](O)[C@@H](O)[C@@H]1O — bathochromic shift (ALB; binding, visible absorption; 50 µM, pH 7, added: HSA up to 200 µM; relative to: without HSA): 67 nm
CC1=CC[C@H](C(C)C)C=C1 — relative fluorescence (uncharacterized protein; binding, competitor, fluorescence displacement; 20 µM, pH 7.4, added: 1-NPN 20 µM; relative to: 1-NPN alone): 67.1%
CC[C@@H](C)[C@@H](NC(=O)[C@@H](Cc1ccc(O)cc1)NC(=O)[C@H]1CCCN1C(=O)[C@@H](CCCNC(=N)N)NC(=O)[C@H](N)Cc1c[nH]cn1)C(=O)N[C@H](C)C(=O)N[C@H](Cc1c[nH]cn1)C(=O)N[C@H](CCCNC(=N)N)C(=O)N[C@@H](C(=O)N[C@H](Cc1ccc(O)cc1)C(=O)N[C@H](CO)C(=O)N[C@H](Cc1ccccc1)C(N)=O)C(C)C — surface TFRC expression (Transferrin receptor protein 1 (Tfrc, Mus musculus, UniProt Q62351); flow cytometry; RAW264.7; 48 h, pH 7.4, unit not given; relative to: 0 h): 0.963
N[C@H](CNC(=O)c1ccc(-c2ccccc2Br)s1)C(=O)O — log EC50 (Grin1 V689I with GluN2C; receptor activation; rat; added: glutamate 300 µM): -1.9 µM
c1ccc2c(Oc3nc(Nc4ccc(N5CCOCC5)cc4)c4ncn(C5CCCCC5)c4n3)cccc2c1 — stimulation (Protein smoothened (SMO, Homo sapiens, UniProt Q99835); agonist; CHO cell membranes, SMO transfected; concentration not given; relative to: basal): 19.8 ± 2.6%
CCCCCCCCCCCC — relative fluorescence (uncharacterized protein; binding, competitor, fluorescence displacement; 20 µM, pH 7.4, added: 1-NPN 20 µM; relative to: 1-NPN alone): 68.3%

For quick reference, copied from above:
O=[N+]([O-])c1ccc(OP(=O)(O)O)cc1 — Km (Tyrosine-protein phosphatase non-receptor type 1 (PTPN1, Homo sapiens, UniProt P18031); substrate): 580 µM
CCNC(=O)/C=C/c1cccc(Br)c1 — normalised signal (Sodium-dependent neutral amino acid transporter B(0)AT1 (SLC6A19, Homo sapiens, UniProt Q695T7); inhibitor, FLIPR membrane potential; CHO-BC cells; 100 µM; relative to: uninhibited control): 0.426 and 0.451 and 0.411 and 0.446
CC[C@H](C)[C@@H]1NC(=O)[C@H](Cc2ccc(O)cc2)NC(=O)[C@H](CC(C)C)NC(=O)[C@@H]2CCCN2C(=O)[C@@H](NC(=O)[C@H](CCCNC(=N)N)NC(=O)[C@H](CCCNC(=N)N)NC(C)=O)CSSC[C@@H](C(=O)N[C@@H](CCCNC(=N)N)C(=O)N[C@@H](CCCNC(=N)N)C(N)=O)NC(=O)[C@H](C(C)C)NC(=O)[C@@H]2CCCN2C(=O)[C@H](CC(=O)O)NC(=O)[C@H](Cc2ccc(O)cc2)NC(=O)[C@H](CO)NC1=O — lowest bound protein concentration (KRAS G12D GDP-bound; affinity selection mass spectrometry; mixture library 2, added: protein titration up to 5 µM; lower is stronger binding): 0.08 µM
